Published values from different studies.
Compare with care: the assays were run in different laboratories. “And” joins repeats or separate records; there may be more than shown. ± gives the spread as reported.
UCHL1: Ubiquitin carboxyl-terminal hydrolase isozyme L1 (UCHL1, Homo sapiens, UniProt P09936)
Sequence of UniProt P09936 (whole entry, looked up): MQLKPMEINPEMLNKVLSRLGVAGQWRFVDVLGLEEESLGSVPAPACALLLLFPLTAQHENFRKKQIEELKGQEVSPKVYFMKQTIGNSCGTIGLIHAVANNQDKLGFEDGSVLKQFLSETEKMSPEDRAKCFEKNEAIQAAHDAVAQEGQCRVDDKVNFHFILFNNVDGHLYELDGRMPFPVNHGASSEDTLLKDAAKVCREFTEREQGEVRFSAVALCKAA
Sequence of UniProt Q07794 (whole entry, looked up): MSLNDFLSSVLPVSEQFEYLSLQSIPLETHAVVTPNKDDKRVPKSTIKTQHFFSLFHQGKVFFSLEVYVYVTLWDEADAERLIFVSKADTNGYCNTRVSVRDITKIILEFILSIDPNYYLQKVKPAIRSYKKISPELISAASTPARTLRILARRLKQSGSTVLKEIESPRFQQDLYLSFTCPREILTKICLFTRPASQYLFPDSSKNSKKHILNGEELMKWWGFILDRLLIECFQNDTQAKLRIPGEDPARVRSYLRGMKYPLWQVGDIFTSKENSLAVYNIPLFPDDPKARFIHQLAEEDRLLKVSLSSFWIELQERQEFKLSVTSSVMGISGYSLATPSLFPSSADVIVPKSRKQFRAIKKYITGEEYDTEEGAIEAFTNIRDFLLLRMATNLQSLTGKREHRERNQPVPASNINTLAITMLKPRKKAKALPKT

Structure (SMILES) | target or system | assay | system | setting | scale | endpoint | result
C[C@]12CC[C@@H]3c4ccc(O)cc4C[C@@H](CCCCCCCCC[S+]([O-])CCCC(F)(F)C(F)(F)F)[C@H]3[C@@H]1CC[C@@H]2O (stereo partly shown) | MCF7 | CCK-8 | – | 200 nM | baseline: untreated | viability | 51.4% and 48.8% and 42.5%
CCCCCCCCCC(=O)N[C@@H](Cc1c[nH]c2ccccc12)C(=O)N[C@H](CC(N)=O)C(=O)N[C@@H](CC(=O)O)C(=O)N[C@@H]1C(=O)NCC(=O)N[C@@H](CCCN)C(=O)N[C@@H](CC(=O)O)C(=O)N[C@H](C)C(=O)N[C@@H](CC(=O)O)C(=O)NCC(=O)N[C@H](CO)C(=O)N[C@@H]([C@H](C)CC(=O)O)C(=O)N[C@@H](CC(=O)c2ccccc2N)C(=O)O[C@@H]1C | MCF7 | cytotoxicity | – | 5 days, 5% FBS | – | EC50 | > 64 µM
CC[C@H](C)[C@H](NC(=O)[C@H](CC(=O)O)NC(=O)[C@H](CCC(=O)O)NC(=O)[C@@H](N)CC(N)=O)C(=O)N[C@@H](CC(=O)O)C(=O)N[C@@H](CCC(N)=O)C(=O)N[C@@H](CCSC)C(=O)N[C@@H](Cc1ccccc1)C(=O)N[C@@H](CO)C(=O)N[C@H](C(=O)N[C@@H](CC(C)C)C(=O)N[C@@H](CC(C)C)C(=O)NCC(=O)N[C@@H](CCC(=O)O)C(=O)N[C@@]1(C)CCCC=CCCC[C@@](C)(C(=O)N[C@@H](CCC(N)=O)C(=O)N[C@@H](CO)C(=O)O)NC(=O)[C@H](CC(C)C)NC(=O)[C@H](CC(C)C)NC(=O)[C@H](CC(=O)O)NC1=O)[C@@H](C)O | MCF7 | – | – | 40 µM, 24, 48, 72 h | – | cell viability | not toxic
CC(=O)c1nn(-c2ccc(Cl)cc2)/c(=N/N=C(\C)c2ccc(NC(=O)c3ccccc3)cc2)s1 | MCF7 | – | – | 0.625 µM | – | viability | 11.6% and 3.79%
COc1ccc(S(=O)(=O)ON=C2C=C(C)C(=O)C(C)=C2)cc1 | MCF7 | cell viability | – | – | – | CC50 | 21.7 µM
CC1=C(C#N)C(=O)N=C(O)C1=Cc1ccc(-c2cc([N+](=O)[O-])ccc2Cl)o1 | UCHL1 | covalent, intact protein LC-MS | – | 12.5 µM | – | labelling | 34%
CC(C)C[C@H](NC(=O)C[C@H](O)[C@H](CC(C)C)NC(=O)[C@H](Cc1c[nH]cn1)NC(=O)CNC(=O)[C@@H](NC(=O)[C@H](C)NC(=O)[C@H](Cc1c[nH]c2ccccc12)NC(=O)[C@H](CCC(N)=O)NC(=O)[C@@H](Cc1ccccc1)NC(=O)COCCOCCNC(=O)CCC(C(=O)O)N1CCN(CC(=O)O)CCN(CC(=O)O)CCN(CC(=O)O)CC1)C(C)C)C(N)=O (stereo partly shown) [lutetium-177 labelled] | – | – | BALB/c nu/nu mice, stomach | intravenous, 500 pmol, 1 h, added: PA 300 µg | – | tissue uptake | 0.6 ± 0.3 %ID/g
CC(=O)OC[C@H]1O[C@@H]([S-])[C@H](OC(C)=O)[C@@H](OC(C)=O)[C@@H]1OC(C)=O.CCP(CC)CC.[Au+] | MCF7 | cytotoxicity | – | 5 days | – | EC50 | 0.05 µM
O=C(NC1CS(=O)(=O)c2ccccc21)c1ccc2[nH]c3c(c2c1)CCCC3 (stereo not shown) | Histone acetyltransferase RTT109, with Vps75 (Saccharomyces cerevisiae, UniProt Q07794) | enzyme activity, inhibitor, HTS, CPM-based, dose response | – | – | – | IC50 | > 125 µM
CC/C(=C(/c1ccc(OCCNC)cc1)c1ccc(B2OC(C)(C)C(C)(C)O2)cc1)c1ccccc1 | MCF7 | – | – | 5 µM | baseline: vehicle | cell growth | 31%
O=[N+]([O-])c1cc(I)c(O)c(C=NNc2ccccc2)c1 | MCF7 | Muse annexin V | – | IC50, 24 h | – | viable cells | 37.9%
O=c1[nH]cc(F)c(=O)[nH]1 | MCF7 | CCK-8 | – | 50 µM, 48 (unit not given) | baseline: untreated control | viability | 97.37 ± 0.9%
N#CC(=Cc1ccc([N+](=O)[O-])c(Cl)c1)C(=O)NCc1ccccc1 | UCHL1 | covalent, intact protein LC-MS | – | 12.5 µM | – | labelling | 44%

Excerpt of the above:
Structure (SMILES) | target or system | assay | system | setting | scale | endpoint | result
CC(=O)c1nn(-c2ccc(Cl)cc2)/c(=N/N=C(\C)c2ccc(NC(=O)c3ccccc3)cc2)s1 | MCF7 | – | – | 0.625 µM | – | viability | 11.6% and 3.79%
COc1ccc(S(=O)(=O)ON=C2C=C(C)C(=O)C(C)=C2)cc1 | MCF7 | cell viability | – | – | – | CC50 | 21.7 µM
